# Measurements collected from several papers.
# Values joined by “and” are separate records of one study, mostly repeats; a detail may differ.
# Chain of UniProt Q15349 (whole entry, looked up): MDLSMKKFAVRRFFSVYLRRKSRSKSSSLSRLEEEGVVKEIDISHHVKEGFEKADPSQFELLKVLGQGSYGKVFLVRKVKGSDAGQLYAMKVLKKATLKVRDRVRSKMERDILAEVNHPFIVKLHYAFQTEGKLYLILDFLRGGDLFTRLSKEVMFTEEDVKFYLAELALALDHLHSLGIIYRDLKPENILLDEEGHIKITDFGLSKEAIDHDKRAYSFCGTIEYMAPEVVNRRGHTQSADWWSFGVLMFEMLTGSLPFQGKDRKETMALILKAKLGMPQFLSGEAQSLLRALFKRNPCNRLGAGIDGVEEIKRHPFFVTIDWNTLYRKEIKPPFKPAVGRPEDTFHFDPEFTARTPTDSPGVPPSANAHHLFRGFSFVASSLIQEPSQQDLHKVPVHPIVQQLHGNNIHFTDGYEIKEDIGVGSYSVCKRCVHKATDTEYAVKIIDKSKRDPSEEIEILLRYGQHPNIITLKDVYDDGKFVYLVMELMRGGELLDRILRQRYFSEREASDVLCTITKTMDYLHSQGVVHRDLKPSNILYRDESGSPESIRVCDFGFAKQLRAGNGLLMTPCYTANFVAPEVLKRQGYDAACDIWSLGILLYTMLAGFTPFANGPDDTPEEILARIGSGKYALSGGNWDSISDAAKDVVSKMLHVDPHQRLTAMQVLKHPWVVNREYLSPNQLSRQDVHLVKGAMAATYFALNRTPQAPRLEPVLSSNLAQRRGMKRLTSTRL
SMILES,target or system,assay,test system,conditions,scale,endpoint,value
CC(C)c1ccc(N(C)c2ccc3c(c2)OCC[C@H]3CNc2cnccc2C(=O)O)cc1,SNU761,"cell viability, CellTiter-Glo",liver,7 days,,IC50,39.7 nM
Nc1ncc(-c2cc(-c3cnn(CC(F)(F)F)c3)ncc2F)nc1C(=O)NC1CNCC(F)C1 (stereo not shown),RIOK1,KINOMEscan,,1 µM,relative to: DMSO control,remaining binding,33%
CN1CCCNC(=O)c2cccc(c2)C(=O)NCCCN(C)CCCNc2cccc3c2C(=O)c2cccc(c2C3=O)NCCC1,SAS,"RNA-Seq, measured: FEZ2 mRNA",,"1 µM, 6 h",relative to: untreated cells,log2 fold change,-1.08
CO[C@@H]1[C@@H](OC(N)=O)[C@@H](O)[C@H](Oc2ccc3c(O)c(NC(=O)c4ccc(O)c(CC=C(C)C)c4)c(=O)oc3c2C)OC1(C)C,DLD-1 BRCA2-/-,,,"200 µM, replicate 2",,colony count,0.1
C=CC(=O)Nc1cccc(Cn2ncc3cnc(Nc4cnn(CCOC)c4)nc32)c1,STK39 human,"binding, KINOMEscan",,100 nM,lower = stronger binding,percent of control,100%
CCN(C(=O)c1cc(F)ccc1Oc1nncnc1N1CCC2(C1)CN([C@H](CCCN(C)CCOC)C(C)C)C2)C(C)C,UO-31,cell growth or viability,,72 h,,GI50,> 10000 nM
Cc1nn(-c2cccc(N)c2)c(=O)c2cnc(Nc3ccc(N4CCNCC4)cc3)nc12,"RPS6KA2 (Homo sapiens, UniProt Q15349)","enzyme activity, inhibitor",,,,IC50,> 10000 nM
CNS(=O)(=O)Nc1nccc(Cc2c(C)c3ccc(Oc4ncccc4F)cc3oc2=O)c1F,SH-4,cell viability,,7 days,,IC50,> 1000 nM
COC1CN([C@H]2CC[C@H]([C@@]3(C)Oc4c(Cl)cc(C(=O)NCc5c(SC)cc(C)[nH]c5=O)c(C)c4O3)CC2)C1,,"RNA-seq, measured: PTPRB mouse homolog","mouse, HT-1376 xenograft, whole blood",dose not given,relative to: vehicle,log2 fold change,2.82
COc1ccccc1-c1ccncc1C(=O)Nc1nnc(OCc2ccc(Cl)cc2)s1,DLD-1 parental,,,"4 µM, mean of replicates",,colony count,79.5 and 81.5 and 69.5
Cn1ncc2cc(-c3cncc(Cl)c3N3CCC4(CCNC4=O)CC3)ccc21,LS174T,"microarray, measured: DAGLA",,"concentration not given, 24 h, gene set DGL-alpha",relative to: untreated cells,fold change in expression,-2.55
Cc1ncsc1-c1ccc(C(C)NC(=O)C2CC(O)CN2C(=O)C(NC(=O)CCCCCCCCCCN2CCCC(Nc3ncc(Cl)c(Nc4ccccc4S(=O)(=O)C(C)C)n3)C2)C(C)(C)C)cc1 (stereo not shown),22Rv1,"RNA-seq, measured: THAP7 mRNA",,concentration not given,relative to: DMSO,log2 fold change,-1.19
CCN(CC)CC(=O)Nc1cccc(-n2cc(-c3ccc4ccc(-c5cn(-c6cccc(NC(=O)CN(CC)CC)c6)nn5)cc4c3)nn2)c1,RCC4,"PCR angiogenesis array, measured: EFNA1",,"5 x IC50, 6 h, normoxia",relative to: untreated,fold regulation,-1.51

# Excerpt of the above:
SMILES,target or system,assay,test system,conditions,scale,endpoint,value
COC1CN([C@H]2CC[C@H]([C@@]3(C)Oc4c(Cl)cc(C(=O)NCc5c(SC)cc(C)[nH]c5=O)c(C)c4O3)CC2)C1,,"RNA-seq, measured: PTPRB mouse homolog","mouse, HT-1376 xenograft, whole blood",dose not given,relative to: vehicle,log2 fold change,2.82
